Measurements collected from several papers.
Every numbered part comes from another study and shows a few of its results, in no order.

Set 1 — technique: universal PBM; molecule type: double-stranded DNA, one strand shown; sample: in vitro; concentration: 600 nM; reading: higher = stronger binding
Target: Sal-like protein 4, full length isoform A (SALL4, Homo sapiens, UniProt Q9UJQ4, residues 1-1053)
Chain of UniProt Q9UJQ4 (whole entry, looked up): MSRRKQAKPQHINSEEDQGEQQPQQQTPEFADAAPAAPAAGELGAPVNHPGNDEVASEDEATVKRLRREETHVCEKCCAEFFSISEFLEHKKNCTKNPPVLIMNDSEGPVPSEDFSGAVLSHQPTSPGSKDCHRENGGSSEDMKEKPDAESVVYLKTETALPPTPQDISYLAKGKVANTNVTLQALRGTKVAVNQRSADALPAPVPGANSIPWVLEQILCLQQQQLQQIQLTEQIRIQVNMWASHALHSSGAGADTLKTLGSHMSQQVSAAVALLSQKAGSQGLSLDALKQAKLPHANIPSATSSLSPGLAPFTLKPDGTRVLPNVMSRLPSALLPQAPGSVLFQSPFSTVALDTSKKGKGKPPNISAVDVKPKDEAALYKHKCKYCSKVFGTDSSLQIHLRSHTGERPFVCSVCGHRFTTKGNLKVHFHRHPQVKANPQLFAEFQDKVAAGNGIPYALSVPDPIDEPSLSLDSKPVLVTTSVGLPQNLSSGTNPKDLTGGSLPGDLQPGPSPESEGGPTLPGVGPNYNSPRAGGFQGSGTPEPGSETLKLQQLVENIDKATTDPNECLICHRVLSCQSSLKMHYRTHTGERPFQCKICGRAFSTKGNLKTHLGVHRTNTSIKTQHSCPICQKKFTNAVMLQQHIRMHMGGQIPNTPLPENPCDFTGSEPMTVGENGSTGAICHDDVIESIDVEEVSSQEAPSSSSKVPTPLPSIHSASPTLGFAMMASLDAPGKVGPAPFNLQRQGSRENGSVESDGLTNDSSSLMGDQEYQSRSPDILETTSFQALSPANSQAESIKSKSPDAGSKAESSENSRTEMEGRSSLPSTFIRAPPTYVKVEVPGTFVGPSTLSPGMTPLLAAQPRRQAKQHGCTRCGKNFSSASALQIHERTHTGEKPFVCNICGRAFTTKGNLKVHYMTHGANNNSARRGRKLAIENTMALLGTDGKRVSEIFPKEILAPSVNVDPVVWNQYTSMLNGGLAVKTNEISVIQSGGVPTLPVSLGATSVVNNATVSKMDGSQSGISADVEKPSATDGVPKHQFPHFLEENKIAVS
Notes: 8-mer, flanks averaged, mean of replicates
| Strand | E-score |
| --- | --- |
| ATAAGGCG | 0.0727 |
| AGGGAAAT | 0.0384 |
| ATACGAGA | 0.154 |
| CCTACTCG | -0.173 |
| AAGTGATA | 0.189 |
| ATAAAACA | 0.338 |
| AAATGCTT | 0.14 |
| ACCCGACG | -0.293 |
| AAAAGGAC | 0.0132 |
| CTCGAATA | 0.0232 |
| TGCCCGCA | -0.227 |
| CACCGTTA | 0.0341 |
| CTCAGAGA | -0.158 |
| ACGTTTCG | 0.0411 |
| GGGTGGTA | -0.158 |
| TCAAACAA | 0.19 |
| AGATTAAG | 0.209 |
| GGGACCGA | -0.344 |
| ACCCCTGC | -0.229 |
| CGTATCCA | -0.0656 |
| CCTTTGAG | -0.18 |
| GCACTCGA | -0.204 |
| AGACAGGG | -0.166 |
| ATAGTGGA | 0.166 |
| CAGAGTGG | -0.248 |

Set 2 — technique: protein-binding microarray; molecule type: double-stranded DNA, one strand shown; sample: in vitro; concentration: 0.8 µM; notes: whole 60-bp probe, no competitor; reading: higher = stronger binding
Target: Centromere-binding protein 1, full length, N-terminal tag (CBF1, Saccharomyces cerevisiae, UniProt P17106, residues 1-351)
Chain of UniProt P17106 (whole entry, looked up): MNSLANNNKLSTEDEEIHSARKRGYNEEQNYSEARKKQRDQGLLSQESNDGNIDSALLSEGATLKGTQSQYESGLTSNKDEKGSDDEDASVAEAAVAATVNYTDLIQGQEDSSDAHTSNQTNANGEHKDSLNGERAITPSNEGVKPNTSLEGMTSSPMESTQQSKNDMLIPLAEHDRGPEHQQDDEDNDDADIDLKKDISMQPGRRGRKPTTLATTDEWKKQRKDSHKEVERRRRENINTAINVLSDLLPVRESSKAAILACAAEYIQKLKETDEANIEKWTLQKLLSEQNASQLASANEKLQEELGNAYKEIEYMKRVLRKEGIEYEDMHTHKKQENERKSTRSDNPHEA
| Strand | fluorescence intensity |
| --- | --- |
| TGTACGAAGCTATTCCATGTGTCTATAGTAGTTAGGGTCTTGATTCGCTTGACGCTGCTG | 559 a.u. |
| CCTAACTACTATAAGAACATCAGATAGCTTCGTACAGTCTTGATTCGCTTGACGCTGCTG | 510 a.u. |
| CTATTGAACAATAAGCACGACCTTCACCTTAGGTTCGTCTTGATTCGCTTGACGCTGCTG | 521 a.u. |
| CTAACAATTCCATTTGATGTCACCGTGGTAATATTCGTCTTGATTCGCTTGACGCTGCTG | 569 a.u. |
| GAAATTTTTAAGCAGCATGTGATAATATTCAGGTAGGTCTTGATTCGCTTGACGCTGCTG | 2190 a.u. |
| CTACTTATTCAACGTGACGTTGTGATATATGTATTCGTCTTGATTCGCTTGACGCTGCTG | 1400 a.u. |
| TGTACGAAGCTATTGCACACGATTATAGTAGTTAGGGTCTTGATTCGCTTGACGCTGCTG | 548 a.u. |
| CTATACCCACAGCAGTGCATGATGACCCAAAACTTCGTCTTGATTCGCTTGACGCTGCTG | 559 a.u. |
| GAATTTGAGACCCCGCGGGTGATATGGCCCCTGTAGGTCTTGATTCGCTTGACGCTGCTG | 481 a.u. |
| TGTACGAAGCTATATAACGTGGGTATAGTAGTTAGGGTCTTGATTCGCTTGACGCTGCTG | 556 a.u. |
| CTACAGCATCCGTGTTTCGTGACATCATTGAAGTTCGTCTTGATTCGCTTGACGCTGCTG | 588 a.u. |
| CTATCGCCGGTGGCCCGTGTGGGTTAAGGGAGGTTCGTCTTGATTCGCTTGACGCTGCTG | 493 a.u. |
| GAAAATTTTTGAGCCCACATGCTTTCGAATGAGTAGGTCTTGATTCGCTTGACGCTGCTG | 677 a.u. |
| GAAAAGTGTGGCCTAGTCGTGGGATATGGTGAGTAGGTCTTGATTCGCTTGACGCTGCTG | 516 a.u. |
| CTATGGATCAACAAGCACATGTTTTTCTAATTATTCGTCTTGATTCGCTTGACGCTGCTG | 752 a.u. |
| CTATTTCGTTAACGTGGTGAAAAAGAAAAGAAATTCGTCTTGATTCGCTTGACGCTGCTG | 807 a.u. |
| CTAATTAGCTTTAAGCACATGTATATTGGACATTTCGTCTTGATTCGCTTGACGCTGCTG | 640 a.u. |
| CTAACGGTGTTAAATGGTGACGCAAGTTATGAGTTCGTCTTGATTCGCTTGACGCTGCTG | 517 a.u. |
| GAACTCGTTTTTAGCCACACCATACCCCCTTTATAGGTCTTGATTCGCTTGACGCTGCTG | 476 a.u. |
| CTAAATACATGCAGGTGACTGATAGAAAAGACATTCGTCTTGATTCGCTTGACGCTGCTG | 2330 a.u. |

Set 3 — technique: RNA Bind-n-Seq; molecule type: RNA; sample: in vitro; concentration: 365 nM; relative to: no-protein control; reading: higher = stronger binding
Target: RNA binding protein fox-1 homolog 2, RRM domain, GST-SBP tag (RBFOX2, Homo sapiens, UniProt O43251-10, residues 100-194)
Notes: natural RNA segment, single round, ends assumed
Residues (chain): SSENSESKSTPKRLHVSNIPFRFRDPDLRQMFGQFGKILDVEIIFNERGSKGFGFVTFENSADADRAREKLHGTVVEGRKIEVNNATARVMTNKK
| Strand | RBNS enrichment (R) |
| --- | --- |
| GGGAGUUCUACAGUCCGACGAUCUGCUGGGACUGGGCUGGUUUUGUCCUUGAAGUGGUCAGGAUACAGGACAAGGGCAGCCCCACCCCAUCCAGCCUGGGCUCCCCGCAGACCCUUGCUGCUCCCGUGGCCUGUGGAAUUCUCGGGUGCCAA | 0.937 |
| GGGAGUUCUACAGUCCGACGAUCUGUAUUGUGGGCAGUUUUGUCAUUGUCCUCAAGUCCUUCGCAGACAGUGCACAGCCUGCUGUCUGCAGUCGGCCAGACCAGGCUCCUCCCCAGCACACUCCCUGUGGGAUUGGAAUUCUCGGGUGCCAA | 0.391 |
| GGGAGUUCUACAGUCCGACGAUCAGGAGGCUGAGGGUUAGGACACAGUAAAAUGAAUUUAACAGUUUCACUGCUUUCUCAAGUAGUUUUGAGUGCUGGGUCCUUAAAACCCAACUAUGCAUUUUUGUCUGAAAUGGAAUUCUCGGGUGCCAA | 0.306 |
| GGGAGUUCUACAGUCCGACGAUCGGGUAUUUCUUCUACCCUAUCUUCUUUCAUUGUCAUUCCAAGGGCAGUAGGCCAAGAAAUUAUCUUUCUGGUUUUUUUCCUCUAAACUCCAUUUGGUUAGCAGACAGUGAUGGAAUUCUCGGGUGCCAA | 0.332 |
| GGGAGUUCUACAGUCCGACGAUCCUGCCCACAGCUUCCUACAUCGAACAUGUCCAUGGUCCGAGAUGCCAUUUCAAACAGUUCCAGUGACCUACUCCUUUUAAGUUGGACACCGAGGCCAAAGGCUGCCUCAGUGGAAUUCUCGGGUGCCAA | 0.471 |
| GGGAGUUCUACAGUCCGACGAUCAUUGGUCUCAAGCGCCAUCAUACUGGAUAUGAGCAAUUUUAGUAACUGCAAUCUGAUUGAUUAUAUUACAGAAUACAUACAAAAAAACAAAGUUGUCUUACCUGUCAGUGUGGAAUUCUCGGGUGCCAA | 0.365 |
| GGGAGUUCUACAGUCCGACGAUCAGAGUCUCUCCUGCCCUCCCUCCUUCCUGCAGGCAAAUAUACAAGCUAGACCCUGUUCCCUCACCCUGUAUCCUGUCUCCCCUAAUUGACAUUCUAUCAGCCCAACCCUCUGGAAUUCUCGGGUGCCAA | 0.516 |
| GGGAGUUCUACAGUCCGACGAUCUUCUUCUGCCUCGCCUGAAUCCCCCAUAAACACCAGAUGAUUGAGUCUACCUUCUUUCCUUGGCCCGCUCCCUUUUUCUUCUGCCUCACUUGAAUCCCCCGUAAACACCAUGGAAUUCUCGGGUGCCAA | 1.02 |
| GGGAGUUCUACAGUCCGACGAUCUUUUUAUUCAGUGAGAACCAAGCUAGCCUUGAGUAAUUUUUAUCUUGUCUUCCUAAAACACUAUUAAGCUUAUUGUACUUUUAAGAAAAAUUGCCUUACGUACAUUCCUUUGGAAUUCUCGGGUGCCAA | 0.775 |
| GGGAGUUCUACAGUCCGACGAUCGGAUGGCCCCAGCACAGCUUGACCUGAGGCUGUGGUCACAGCGGAGGUGUGGAGCCGAGGCCUACCCCGCAGACACCUUGGACAUCCUCCUCCCACCCGGCUGCAGAGGCUGGAAUUCUCGGGUGCCAA | 0.529 |
| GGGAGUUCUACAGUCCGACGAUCCAUGGAAGGGAGGCAGCUCAGGGACCACCAUUGUGGAGCCUUUGAGACCUCUCUGAUUCAGAAACACACUUCUACCUCUUUACUGUUAACUCCAACAGAUGUAGCCAGCAUGGAAUUCUCGGGUGCCAA | 0.882 |
| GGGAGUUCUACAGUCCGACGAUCAGGAUGCUAAUCCCUAGAGCAGUUUACCAGCUAUGUGUGAAAUUGAAGCAGGUACCAUGGAUGACACGGGACUGCCCAACAACACUUGGAAAUGAUUGUUAACAUCACAGUGGAAUUCUCGGGUGCCAA | 0.304 |

Set 4 — technique: RNA Bind-n-Seq; molecule type: RNA; sample: in vitro; concentration: 200 nM; notes: whole 134-nt RNA, ends assumed; together with: 150 mM LiCl; relative to: input library; reading: higher = stronger binding; all molecules: 7-deaza-guanosine replaces G
Target: Ras GTPase-activating protein-binding protein 1, full length (G3BP1, Homo sapiens, UniProt Q13283)
Chain of UniProt Q13283 (whole entry, looked up): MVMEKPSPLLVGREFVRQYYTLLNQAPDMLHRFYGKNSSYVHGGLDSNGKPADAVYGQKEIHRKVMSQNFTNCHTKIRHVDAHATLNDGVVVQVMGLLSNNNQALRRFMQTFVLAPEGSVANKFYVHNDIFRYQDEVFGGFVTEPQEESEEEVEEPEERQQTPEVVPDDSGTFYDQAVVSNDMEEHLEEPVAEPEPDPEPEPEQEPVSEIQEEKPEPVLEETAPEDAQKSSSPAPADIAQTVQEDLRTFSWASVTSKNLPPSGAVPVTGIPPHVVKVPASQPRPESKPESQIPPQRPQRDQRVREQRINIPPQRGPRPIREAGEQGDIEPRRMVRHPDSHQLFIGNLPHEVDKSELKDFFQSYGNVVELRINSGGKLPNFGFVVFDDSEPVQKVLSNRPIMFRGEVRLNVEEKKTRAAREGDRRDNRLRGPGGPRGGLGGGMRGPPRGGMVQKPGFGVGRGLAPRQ
| Strand | log2 enrichment |
| --- | --- |
| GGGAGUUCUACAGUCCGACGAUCGUCCUGUGCUACACAUCGUAUGUACCGAAUCGGGGAAAAAGGGGUUUGGGGUUUGGGGAAAGUAUUAUGUUACGCCGUUCGGAUCUGCACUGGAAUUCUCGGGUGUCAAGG | -0.909 |
| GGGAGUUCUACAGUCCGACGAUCUGCUUGUUCUGGAGUGAUCUUCUGACUGGAAAAGAACUAUGUCAUGGAUCAAGGAAGGAGAGCUGUCACUUUGGGAGCGGUUCUGUGCCAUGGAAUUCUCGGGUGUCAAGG | 1.1 |
| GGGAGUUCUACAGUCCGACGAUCCUCAAGUCCUGUGCUACACAUCGUAUGUACCGAAUCGGUUGGGUUGGGUUGGGAAAGUAUUAUGUUACGCCGUUCGGAUCUGCACUUCCAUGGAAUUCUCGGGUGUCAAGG | 0.357 |
| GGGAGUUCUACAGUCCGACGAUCCCUCAAGUCCUGUGCUACACAUCGUAUGUACCGAAUCGGGAGGGGAGGAGGGGAAAGUAUUAUGUUACGCCGUUCGGAUCUGCACUUCCAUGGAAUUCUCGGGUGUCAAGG | 0.396 |
| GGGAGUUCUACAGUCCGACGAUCUGGGAGGUGGAUUUUGUUUAUUUUUUUAGCUCAUUUCCAGGGGUGGGAAUUUUUUUCUAAUAUGUGUCAUGAAUAAAGUUGUUUUUGAAAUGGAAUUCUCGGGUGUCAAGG | -0.434 |
| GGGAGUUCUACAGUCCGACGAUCUGGGUGGUGGAUUUUGUUUAUUUUUUUAGCUCAUUUCCAGGGGUGGGAAUUUUUUUUUAAUAUGUGUCAUGAAUAAAGUUGUUUUUGAAAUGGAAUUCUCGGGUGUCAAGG | 0.256 |
| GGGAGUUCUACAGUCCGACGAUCUCCUGUGCUACACAUCGUAUGUACCGAAUCGGGGAAAAAGGGGAGGGGAAAAAAAGGGGAAAGUAUUAUGUUACGCCGUUCGGAUCUGCAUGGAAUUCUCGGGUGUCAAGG | 0.414 |
| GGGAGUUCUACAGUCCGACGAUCAAGUCCUGUGCUACACAUCGUAUGUACCGAAUCGGGGUUUUUGGGGAGGGGUGGGGAAAGUAUUAUGUUACGCCGUUCGGAUCUGCACUUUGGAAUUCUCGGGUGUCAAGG | -0.284 |
| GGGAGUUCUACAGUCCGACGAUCUGGCCCUGGGGGCAUGCGGGGAGGAAGAGGUGGCCUCAUGGAUCGUGGUGGUCCCGGUGGAAUGUUCAGAGGUGGCCGUGGUGGAGACAGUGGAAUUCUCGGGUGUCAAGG | -0.0545 |
| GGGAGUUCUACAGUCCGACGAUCUGGCCCUGGUGGCAUGCGGGGAGGAAGAGGUGGCCUCAGGGAUCGUGGUGGUCCCGGUGGAAUGUUCAGAGGUGGCCGUGGUGGAGACAGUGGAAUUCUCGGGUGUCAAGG | 0.413 |
| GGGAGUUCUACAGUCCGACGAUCUCAAGUCCUGUGCUACACAUCGUAUGUACCGAAUCGGGGUGGGGUGGGGAGGGGAAAGUAUUAUGUUACGCCGUUCGGAUCUGCACUUCCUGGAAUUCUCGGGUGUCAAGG | -0.521 |

For quick reference, copied from above (set 1):
| Strand | E-score |
| --- | --- |
| ACCCCTGC | -0.229 |
| CGTATCCA | -0.0656 |
| CCTTTGAG | -0.18 |
| GCACTCGA | -0.204 |
| AGACAGGG | -0.166 |
